Experimental data collected from several papers.
Several values in a cell are separate wells, animals, samples, runs or records. pEC50, pIC50: −log10 of the molar value.
Organism: Plasmodium falciparum

The pIC50 of `COC1=CC(c2ccc[nH]2)=NC1=CN1CCCCC1` is reported as < 5.60 (parasite growth; 7G8, chloroquine-resistant).
The parasite survival of `COc1cc2c3c4c1Oc1cc5c(cc1O4)[C@H](Cc1ccc(OCCCN(C)C)c(c1)Oc1ccc(cc1)C[C@@H]3N(C)CC2)N(C)CC5` is reported as < 5% (NF54, early ring stage; 10 x IC50, 6 h, 0-6 h post-invasion, read at 72 h post-invasion).
`Cc1ccc(C(C)C)cc1.[Cl][Ru+].[O-]c1ccccc1C=NCCNc1ccnc2cc(Cl)ccc12` gave a resistance index of 18.6 and 18 (parasite growth, pLDH; Dd2, chloroquine-resistant; relative to: IC50 Dd2 over IC50 D10).
With `CC[C@H](C)[C@H](NC(=O)[C@H](Cc1ccccc1)NC(=O)[C@H](CC(C)C)NC(=O)[C@]1(C)CCCC=CCCC[C@](C)(NC(=O)[C@H](CC(C)C)NC(=O)[C@H](CCCCN)NC(=O)[C@H](CCC(N)=O)NC(=O)[C@H](CO)NC(=O)CNC(=O)CCNC(=O)c2ccc3c(c2)C(=O)OC32c3ccc(O)cc3Oc3cc(O)ccc32)C(=O)N[C@@H](CCC(N)=O)C(=O)N[C@@H](C)C(=O)N[C@@H](C)C(=O)N1)C(=O)NCC(=O)N[C@@H](CO)C(=O)N[C@@H](CCCCN)C(=O)N[C@@H](CC(C)C)C(=O)N[C@H](C(=O)N[C@H](C(N)=O)[C@@H](C)O)[C@@H](C)O` the parasitemia reduction was ~30% (CS2; 10 µM, 24 h, late-stage iRBC).
Under “merozoite invasion inhibition”, `COc1cc2ncnc(Nc3ccc(Oc4ccccc4)cc3)c2cc1OC` is recorded as “no inhibition” (red blood cells, FVO; up to 60 µM, 72 h).
With `O=C1C2=C(Nc3ccccc3SC2c2ccc(F)cc2)c2ccccc21` (racemic) the fold resistance was 7.7 (Dd2 expressing yeast DHOD; added: 0.05 nM proguanil; relative to: transgenic over parental Dd2).
For `COC1=CC(c2ccc[nH]2)=NC1=CNC1CCC1`, the pIC50 was 6.30 (parasite growth; Dd2, chloroquine-resistant).
`CCC(C)C1NC(=O)C(Cc2ccccc2)NC(=O)C(CCCCCC(=O)C2CO2)NC(=O)C2CCCCN2C1=O` (stereo not drawn) — result for “time to full killing”: 5 days (flow cytometry; Dd2; concentration not given, 24 h exposure; relative to: DMSO control).
With `CN1CCCCC1C(=O)NC(Cc1ccc(-c2ccccc2)cc1)B(O)O` (stereo not drawn) the LD50 was 9 nM (parasite growth, flow cytometry; 3D7; 72 h).
With `COc1ccccc1C1Sc2ccccc2NC2=C1C(=O)c1ccccc12` (racemic) the pEC50 was < 5.30 (growth, hypoxanthine uptake; Dd2 expressing yeast DHOD).
With `CCC1=CC(c2ccc[nH]2)=NC1=CNC12CC3CC(CC(C3)C1)C2` the selectivity index was 2440 (HepG2, D6; relative to: HepG2 IC50 over D6 IC50).
The resistance index of `N#Cc1c(-c2ccco2)[n+]([O-])c2ccc(C(F)(F)F)cc2[n+]1[O-]` is reported as 0.71 (K1 chloroquine-resistant; relative to: K1 IC50 over 3D7 IC50).
The fold resistance of `O=C1C2=C(Nc3ccccc3SC2c2ccsc2)c2ccccc21` (racemic) is reported as 0.27 (Dd2 expressing yeast DHOD; added: 5 nM proguanil; relative to: transgenic over parental Dd2).
The pIC50 of `CC(C)C1=CC(=CNC2CCCCCCC2)N=C1c1ccc[nH]1` is reported as 5.83 (parasite growth; 7G8, chloroquine-resistant).
The growth inhibition of `CC[C@H](C)[C@H](NC(=O)[C@@H](NC(=O)[C@H](Cc1ccc(O)cc1)NC(=O)[C@H](CCCCN)NC(=O)[C@H](CCCCN)NC(=O)[C@H](CC(C)C)NC(=O)[C@H](CC(=O)O)NC(=O)[C@H](Cc1ccc(O)cc1)NC(=O)[C@H](CCC(N)=O)NC(=O)[C@H](CCCCN)NC(=O)[C@@H](NC(=O)[C@H](Cc1ccccc1)NC(=O)[C@H](CCCCN)NC(=O)[C@H](CCCCN)NC(=O)[C@H](Cc1c[nH]c2ccccc12)NC(=O)[C@H](CCCCN)NC(=O)[C@H](CCSC)NC(=O)[C@H](CCCNC(=N)N)NC(=O)[C@H](CCCNC(=N)N)NC(=O)[C@H](CC(N)=O)NC(=O)[C@H](CCC(N)=O)NC(=O)[C@H](Cc1ccccc1)NC(=O)[C@H](Cc1c[nH]c2ccccc12)NC(=O)[C@@H](NC(=O)[C@H](CCCCN)NC(=O)[C@@H](NC(=O)[C@H](CCC(N)=O)NC(=O)[C@@H](N)CCCNC(=N)N)[C@@H](C)CC)[C@@H](C)CC)[C@@H](C)CC)[C@@H](C)CC)C(=O)O` is reported as ~50% (3D7; 50 µM, 24 h, early trophozoite stage, new ring stage; relative to: solvent control).

Some of these lines once more:
With `CN1CCCCC1C(=O)NC(Cc1ccc(-c2ccccc2)cc1)B(O)O` (stereo not drawn) the LD50 was 9 nM (parasite growth, flow cytometry; 3D7; 72 h).
The pIC50 of `COC1=CC(c2ccc[nH]2)=NC1=CN1CCCCC1` is reported as < 5.60 (parasite growth; 7G8, chloroquine-resistant).
